Experimental data of several laboratories.
Each numbered part is a random draw from the data of one study; scales do not carry over between parts.

Block 1
Target: Sal-like protein 4, full length isoform B (SALL4, Homo sapiens, UniProt Q9UJQ4-2, residues 1-616)
Technique: universal PBM
Molecule type: double-stranded DNA, one strand shown
Medium: in vitro
Tested at: not given
Notes: 8-mer, flanks averaged, mean of replicates
Reading: higher = stronger binding
| Oligonucleotide | E-score |
| --- | --- |
| AAAACGCA | -0.0538 |
| AGAGTAAG | -0.0295 |
| ATAGCGGA | 0.0629 |
| ACCCGTCC | -0.188 |
| TCAGTGAA | -0.0938 |
| ACGCGTAA | 0.0793 |
| CTAGGGGA | -0.171 |
| CGACTTTC | -0.0649 |
| CGAGTCCA | -0.203 |
| AGGTGCAC | -0.17 |
| GAGCGGTA | -0.195 |
| GTCGGTGA | -0.176 |
| TAACTCCA | 0.0927 |
| GCTGTTAC | -0.211 |
| CGATAAAC | -0.0195 |
| CCATATAG | 0.119 |
| ATCAAGAT | 0.121 |
| TACTAGCA | 0.0806 |

Block 2
Target: Cyclic AMP-responsive element-binding protein 1, full length (CREB1, Homo sapiens, UniProt P16220, residues 1-327)
Sequence of UniProt P16220 (whole entry, looked up): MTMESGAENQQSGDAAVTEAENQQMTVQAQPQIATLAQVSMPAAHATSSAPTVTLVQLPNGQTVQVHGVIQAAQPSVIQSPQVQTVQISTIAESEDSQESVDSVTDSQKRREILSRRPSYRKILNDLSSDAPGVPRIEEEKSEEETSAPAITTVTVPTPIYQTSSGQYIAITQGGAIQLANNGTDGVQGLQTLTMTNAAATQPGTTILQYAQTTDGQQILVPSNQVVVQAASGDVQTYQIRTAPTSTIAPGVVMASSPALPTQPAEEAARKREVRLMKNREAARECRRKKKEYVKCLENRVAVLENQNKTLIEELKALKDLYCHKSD
Technique: protein-binding microarray
Molecule type: hairpin DNA
Medium: in vitro
Tested at: not given
Notes: whole hairpin DNA, median over replicate spots
Baseline: not given
Reading: higher = stronger binding
Shared flanks, not repeated: GAGGCCG … CGGCCTCACACTC
| Oligonucleotide | median fluorescence [a.u.] |
| --- | --- |
| ACCGCGTCGTGCCTCCTGGCACGACGCGGT (5mC at 9 10 15 29 34) | 4010 |
| ACGACCGCGTGCCTCCTGGCACGCGGTCGT (5mC at 9 15 29 31 35) | 2870 |
| CGTGACGTCAGCCTCCTGGCTGACGTCACG (5mC at 8) | 22800 |
| ACGACCTCGTGCCTCCTGGCACGAGGTCGT (5mC at 9 15 29 35) | 2600 |
| GATCACGTCAGCCTCCTGGCTGACGTGATC (5mC at 11) | 4860 |
| GCTGACGTCGGCCTCCTGGCCGACGTCAGC (5mC at 16) | 4110 |
| GATGCGGTCAGCCTCCTGGCTGACCGCATC | 2820 |
| GATGTCGTCAGCCTCCTGGCTGACGACATC | 4390 |
| TCGACGTCGTGCCTCCTGGCACGACGTCGA (5mC at 9 15 29 35) | 3840 |
| GCTGACGCCAGCCTCCTGGCTGGCGTCAGC | 3350 |
| ACTACGTCGTGCCTCCTGGCACGACGTAGT (5mC at 9 15 29) | 6830 |
| GCTCACGTCAGCCTCCTGGCTGACGTGAGC | 4230 |
| GATGCGGTCAGCCTCCTGGCTGACCGCATC (5mC at 12 32) | 2700 |
| GCGACGTCGTGCCTCCTGGCACGACGTCGC (5mC at 9 15 29 35) | 4330 |
| GCTCGCGTCAGCCTCCTGGCTGACGCGAGC (5mC at 11) | 3430 |
| GCTGACGTCGGCCTCCTGGCCGACGTCAGC (5mC at 28) | 7470 |
| CGTGACGTCAGCCTCCTGGCTGACGTCACG | 24000 |
| GCTGACTTCAGCCTCCTGGCTGAAGTCAGC | 2450 |
| GATGACGTGAGCCTCCTGGCTCACGTCATC | 9670 |
| ACGACGTCGGGCCTCCTGGCCCGACGTCGT (5mC at 9 15 29 35) | 3570 |
| ACGACGTCGCGCCTCCTGGCGCGACGTCGT (5mC at 9 15 29 35) | 4470 |
| GCTCGCGTCAGCCTCCTGGCTGACGCGAGC (5mC at 33) | 4590 |

Block 3
Target: Histone acetyltransferase KAT6A, winged helix 2, GST fusion (KAT6A, Homo sapiens, UniProt Q92794, residues 85-181)
Technique: protein binding microarray
Molecule type: double-stranded DNA, one strand shown
Medium: in vitro
Tested at: not given
Notes: 8-mer, flanks averaged, mean of 2 arrays, mostly near background
Baseline: not given
Reading: higher = stronger binding
Construct (chain): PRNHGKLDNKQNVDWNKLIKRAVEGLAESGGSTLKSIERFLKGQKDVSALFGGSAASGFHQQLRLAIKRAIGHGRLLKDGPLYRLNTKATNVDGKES
| Oligonucleotide | E-score |
| --- | --- |
| TTCAGGAA | -0.0941 |
| TATTGGGA | -0.065 |
| CGTTGATA | 0.0114 |
| GGGGACAC | 0.0916 |
| CGGAACGA | 0.0584 |
| AGTAAGGG | 0.0253 |
| AAACAAGA | 0.15 |
| CAACATTC | -0.213 |
| CCTCCTGA | -0.0247 |
| CACCTAAC | -0.0506 |
| AACTAACT | -0.142 |
| AAAAGCCG | 0.0238 |
| ACTCGCGC | 0.226 |
| GTGCGCGA | 0.0158 |
| AAATGGCC | -0.0636 |
| ATACGAAC | 0.15 |
| TTCTAAAA | 0.248 |

Block 4
Target: RING finger protein unkempt homolog, zinc fingers 1-6, GST-SBP tag (UNK, Homo sapiens, UniProt Q9C0B0, residues 30-357)
Technique: RNA Bind-n-Seq
Molecule type: RNA
Medium: in vitro
Tested at: not given
Notes: RNA with constant flanks, ends assumed
Baseline: input RNA pool
Reading: higher = stronger binding
Shared flanks, not repeated: GGGAGUUCUACAGUCCGACGAUC … CAACAGAGGAUUGAGCAUCA
Construct (chain): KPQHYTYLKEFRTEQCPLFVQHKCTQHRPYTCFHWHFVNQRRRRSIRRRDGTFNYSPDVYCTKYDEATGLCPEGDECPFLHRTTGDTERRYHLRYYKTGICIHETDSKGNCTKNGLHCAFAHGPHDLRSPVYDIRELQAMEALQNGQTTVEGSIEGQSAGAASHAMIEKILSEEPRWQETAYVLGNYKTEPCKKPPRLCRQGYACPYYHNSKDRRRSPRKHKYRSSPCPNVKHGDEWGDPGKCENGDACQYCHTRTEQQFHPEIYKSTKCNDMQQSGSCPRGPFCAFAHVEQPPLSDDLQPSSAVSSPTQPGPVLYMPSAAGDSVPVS
| Oligonucleotide | bound/input enrichment |
| --- | --- |
| GGCCAGGCUUUUGAGCUGAUCUUGAAGCCACCAUCUCCUAUCUCAGAAGCCCCACGAACUUCCGCUUCUCCAAAGAAGAAAGACCUGUCCCUGGAGGAGAUCCAGAAGAAACUGGAGGCU | 0.0491 ratio |
| UUUCUUUUUUUUUCCCCUUUCUUCUUCCUCCCUCCCAAUUCCAACACCUCCAACCCCCAAACCCGGCUGGCCUCGAACUCACUAUUGUAGAAAGAUGUCCUUGAAGUCUCAAUCCUCCUG | 1.92 ratio |
| GCUUCUAAAAUGUGAUUAUCGACCAUGGUAUGCAUGAUCGUUGUAAUUGUUGACAUUCCUUUCCGAAGUUGUGAAAUGUUACAACUUGUGCUUCUGUAGACACAAUCUUCUGUCUCCAUA | 0.182 ratio |
| UCGACUCCAGCGGCCCCGACAGCACGGAAGCAGCUGGAUAAAGAACAGGACCUUGCCUCACCGUAUUCGAUCAGAUUCAGAAGAUAUCUGUUUAUUUACGAAGGAUGAACCCAAUUCAAC | 0.0393 ratio |
| UUUGAAAGAAAAAUACCAUGUCUCUAAGCCAACUUUAAUUGCUUAAAAGACAUUUUUAUUCCGUUGAAAAAUCUAGUUUUUUUUGUAAACUGUAUCAAAUCUGUAUAUGUUGUAAUAAAA | 6.32 ratio |
| AAGAAGUCUCAGUAGUAAUCUUGUUCAUGUGCUUUUACAGCCAGCUACAUUUAAGAAUGUAUCCGUUACAGAAAUUAUAUGUCUGUGUAUGUGUCUCUACUCAAUAAAGUACAUGCCUCC | 0.547 ratio |
| AUCAAGUAUUUUGGGGAUAUUAUUAGCGUGGGACAGAGAUUGUUGCAAGGGGCCCGGAUUUCCGGAAUUCCUGUUAUUGUAACAGAACAAUACCCUAAAGGUCUUGGGAGCACGGUUCAA | 0.443 ratio |
| UUGGCCUCCAACCCCAUCAUGGAGUCAAUUGGAAAUGCCAAAACAACCAGGAAUGAUAACCGCAGCCGGUUUGGAAAAUAUAUUGAAAUUGGUUUUGACAAGAGGUACAGAAUCAUCGGU | 0.232 ratio |
| ACUACCCACAAAGAAGAAAAGAGUUUACUAGAACUAGAAGUUGAUUUGGAUAACUUGGAAUCCGAGGAUAUUGACACAACAGACAUUAAUCUGGAUGAAGAUAUUCUGGAUGAUUAAAGU | 0.429 ratio |
| AAAGAGUGGAUAGAGUGUGCACACGGGAUCGGUGGGACCCGGGCGAAAAAGGAGUGCAAGACCGAGUUCGAUGACUUCGAAGAGUGCUUGCUUCGGUACAAAACGAUGAGGCGAAUGCAU | 0.24 ratio |
| GCUUUCAGCCCGUGUAAAUAUUUAAAUAAAACAGUAUUAACAUUUUUGUGCUGCUUCUCGUCCGGUUGUAGAUCUAGCCAUGCUCUGGCCGCCUCUGCCAUCCUGGAGGUAGUUUUCCUU | 0.142 ratio |

Block 5
Target: RNA binding protein fox-1 homolog 2, RRM domain, GST-SBP tag (RBFOX2, Homo sapiens, UniProt O43251-10, residues 100-194)
Technique: RNA Bind-n-Seq
Molecule type: RNA
Medium: in vitro
Tested at: 365 nM
Notes: natural RNA segment, single round, ends assumed
Baseline: no-protein control
Reading: higher = stronger binding
Shared flanks, not repeated: GGGAGUUCUACAGUCCGACGAUC … UGGAAUUCUCGGGUGCCAA
Construct (chain): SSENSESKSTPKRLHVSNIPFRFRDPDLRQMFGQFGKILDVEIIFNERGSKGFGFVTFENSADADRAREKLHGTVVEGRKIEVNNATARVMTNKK
| Oligonucleotide | RBNS enrichment (R) |
| --- | --- |
| CUCUUUAAAUACAUUAUGGAAGAUAAUGAAGAUACUUCAUUCUCUUGUGAUAUCAGUGUAUGCGUACCUGUGUCGCUUUAUUUGCAGUGUGUUGAGGGACUGGUGUAUCC | 0.293 |
| UGGACCAGAAGCCUGGUCUGUGCCUAGGAUGACACUGGCCCCAGAGAUGCUAGAGUCGACUGCACUCUCUCCUUAGCUGCAGACCAUGCACAGUGCCUGGGGCGGAAGGA | 2.33 |
| UCAUAGUUUGCAGUGUCCUAGGUAGCACUUGGGGAGCCAGGUGCAUUCAGGGUCAGUAGGGAGGACAAAAUAGGGGGCUCUACGUGCAGUGAGGAAAGGCUGCUGUCAUG | 1.9 |
| CAGUAGCAUGUAAUGCAACUGUUUGACAGUUUAACUCAAUUCAUGCUUCAAACUGUUUUAAUCAUCAAACCAAGUCACUGUUCAUUUUCAUCUUCUUGUACAGUUUUUGU | 0.657 |
| GGAACCCAUCAGGUAUGAGUGAGGAGCCGGUAGUGAAUUCAGUAUUGGCCAAGUCCAUGUUGUGUGCUCAGAAGUCUCUUUACCAAAGACCAGGAGCAGGAGCCAAGCAU | 0.936 |
| UCCGUCCCCCAAACAUGUUGUACAUUUCACCAUGGCCCCCUCAUCAUAGCAAUAACAUUCCCACUGCCAGGGGUUCUUGAGCCAGCCAGGCCCUGCCAGUGGGGAAGGAG | 0.58 |
| UGACAAAUGUUAAGUGUAAUAAUAGAAAAGUAGAGCAAAGAGCCAUUCAGCUUCAGUCUUUACAUACCAUGAAUAAAACAUUAAAACAUCAUAUGGAGAAGUUUACAUGG | 0.243 |
| GACCUCGGGCAAGGCCCUCUCUGGGCCUCGGUGGCCUGUGGAUAAGGAGGGGAGACCCCCACUCGCCUGCCUGCCUGCAUCACGGGGCCAUUGUGAGGUUGGGGGAAGAC | 3.65 |
| AGGAUGUAUAAGGUGACGACACAAACCAAAUACCUUUCUUUCAUCACUUAACUAUACGUACUUUAUCUCUGGUAACACUAGAAUGCUGUGGUCUUGAGGGAAUGUUAGCA | 11.2 |
| CUCCCUUCUCAGGGGGCCCAUUUUAGACACACAAAGCCCAAAGAAAGGUGGUUUGCAACAGUGCUUAGCUCGAGCCUCCAUAUUUCCAUAACUGUUAGCUUAAAACUGUG | 0.335 |
| CCACCGGCAGCGUCCAGGUGCGGGGCCGGGAACCACACACCCCACUGGGCCGGCCACAGUCUGGACCCGCACGUCCUGUUCAAAAGCAGACUCGGGAACUGCCUGAAUGU | 3.02 |
| CAGUGGUCGCUCCGGUGGGUAAGGAGAGUCUUAUAGCAUGGAUUGUUAGUAAUGUACACCUCUGAUGGGACUCCAAAGGGUGGUCCUUCACUUAGGUGUAGAGCCCCACA | 0.488 |

For quick reference, copied from above (block 2):
| Oligonucleotide | median fluorescence [a.u.] |
| --- | --- |
| GCTGACTTCAGCCTCCTGGCTGAAGTCAGC | 2450 |
| GATGCGGTCAGCCTCCTGGCTGACCGCATC | 2820 |
| ACGACGTCGGGCCTCCTGGCCCGACGTCGT (5mC at 9 15 29 35) | 3570 |
| GCTGACGCCAGCCTCCTGGCTGGCGTCAGC | 3350 |
| GATGTCGTCAGCCTCCTGGCTGACGACATC | 4390 |
| GATGACGTGAGCCTCCTGGCTCACGTCATC | 9670 |
| GCTCGCGTCAGCCTCCTGGCTGACGCGAGC (5mC at 33) | 4590 |
| GCTGACGTCGGCCTCCTGGCCGACGTCAGC (5mC at 28) | 7470 |
| ACGACCGCGTGCCTCCTGGCACGCGGTCGT (5mC at 9 15 29 31 35) | 2870 |
| GCGACGTCGTGCCTCCTGGCACGACGTCGC (5mC at 9 15 29 35) | 4330 |
| ACGACCTCGTGCCTCCTGGCACGAGGTCGT (5mC at 9 15 29 35) | 2600 |
| CGTGACGTCAGCCTCCTGGCTGACGTCACG (5mC at 8) | 22800 |
